Experimental data pooled from the literature.
± gives the spread as reported.

O=C(N/N=C1\C(=O)Nc2ccccc21)N/N=C1\C(=O)Nc2ccccc21 — EC50 (influenza A virus; cytopathic effect, visual CPE score; MDCK, H1N1): > 100 µM
CCC(CC)O[C@@H]1C=C(C(=O)O)C[C@H](N)[C@H]1NC(C)=O — EC50 (Influenza A virus; viral cytopathic effect, MTS; MDCK, H3N2): 5.2 µM
CCCCCCCCCCCCS(=O)(=O)N[C@H]1C(=O)N[C@@H]2Cc3ccc(c(Cl)c3)Oc3cc4cc(c3O)Oc3ccc(cc3Cl)[C@@H](O[C@@H]3O[C@H](CO)[C@@H](O)[C@H](O)[C@H]3NC(C)=O)[C@H]3NC(=O)[C@H](NC(O)[C@@H]4NC(=O)[C@@H](NC2=O)c2cc(O)cc(c2)Oc2cc1ccc2O)c1ccc(O)c(c1)-c1c(O)cc(O)cc1[C@H](C(=O)O)NC3=O (stereo partly shown) — EC50 (human coronavirus 229E; viral replication; HEL; 120 h): ~2 µM
Cc1cc2c(c(=S)[nH]1)C(=O)O/C2=C\c1sccc1C — EC50 (influenza A H1N1, H3N2, influenza B; cytopathic effect; MDCK, A/Puerto Rico/8/34, A/Hong Kong/8/68, B/Lee/40; range over three viruses): < 20 µM
NC(=O)c1ncn([C@@H]2O[C@H](CO)[C@@H](O)[C@H]2O)n1 — EC50 (influenza A virus; cytopathic effect, MTS; MDCK, H1N1): 2.8 ± 0.25 µM
O=C1O/C(=C\c2cccs2)c2cc(-c3ccccc3)[nH]c(=S)c21 — EC50 (influenza A H1N1, H3N2, influenza B; cytopathic effect; MDCK, A/Puerto Rico/8/34, A/Hong Kong/8/68, B/Lee/40; range over three viruses): 15.1 to 31.7 µM
CC(C)C(=O)OC[C@H]1O[C@@](C#N)(c2ccc3c(N)ncnn23)[C@H](O)[C@@H]1O — EC50 (swine acute diarrhea syndrome coronavirus; viral replication; Vero C1008; 48 h): 2.49 µM
CCOC(=O)C1=C[C@@H](OC(CC)CC)[C@H](NC(C)=O)[C@@H](N)C1 — EC50 (influenza A virus H3N2; viral replication; MDCK): 90 ± 21 µM
O=C(N/N=C1\C(=O)Nc2ccc(Cl)cc21)N/N=C1\C(=O)Nc2ccc(Cl)cc21 — EC50 (influenza A virus; cytopathic effect, MTS; MDCK, H1N1): > 100 µM
NC12CC3CC(CC(C3)C1)C2 — EC50 (Influenza A virus; viral cytopathic effect, visual CPE score; MDCK, H3N2): > 1000 µM
O=C(O)c1cc(O)c(O)c(O)c1 — EC50 (Influenza A virus H1N1 pandemic; viral replication; A549; 72 h): 1 to 5 µg/mL
O=C1/C(=N\NC(=S)NN=Cc2ccccc2)c2ccccc2N1Cc1ccccc1 — EC50 (influenza A virus; cytopathic effect, visual CPE score; MDCK, H1N1): > 100 µM
Cc1oncc1C(=O)Nc1ccc(C(F)(F)F)cc1 — EC50 (human coronavirus 229E; viral replication, qPCR, item: viral RNA; MRC-5; 48 h): 42.7 µM
NC12CC3CC(CC(C3)C1)C2 — EC50 (influenza A virus; cytopathic effect, visual CPE score; MDCK, H1N1): 5 µM
CCC(CC)COC(=O)[C@H](C)N[P@](=O)(OC[C@H]1O[C@@](C#N)(c2ccc3c(N)ncnn23)[C@H](O)[C@@H]1O)Oc1ccccc1 — EC50 (human coronavirus 229E; viral replication, qPCR, item: viral RNA; MRC-5; 48 h): 0.015 µM
CC(N)C12CC3CC(CC(C3)C1)C2 (stereo not shown) — EC50 (influenza A virus; viral replication, visual CPE score; MDCK, H1N1): 10 ± 0.27 µM
Cc1ccc2c(c1)/C(=N/NC(=O)N/N=C1\C(=O)Nc3ccc(C)cc31)C(=O)N2 — EC50 (Influenza A virus H3N2; viral replication, MTS; MDCK): > 20 µM
CCC(CC)O[C@@H]1C=C(C(=O)O)C[C@H](N)[C@H]1NC(C)=O — EC50 (influenza A virus; viral replication, MTS viability; MDCK, H1N1): 13.6 ± 0.1 µM
CN[C@@](C)(C[18F])C(=O)O — tracer uptake (A549 tumour model; host not given, bone; 1 h, tumour-bearing): 1.6 %ID/g
